Published values from different studies.
Each line is one published result; not all experiments were run side by side.

Structure (SMILES) | tested on | assay | system | setting | how to read | endpoint | value
O=C(O)CNC(=O)Cc1ccccc1 | – | – | ventricular cardiomyocytes, C57BL/6 mouse | dose not given, 0.592 s | – | sarcomere length | 1.66 µm
N#Cc1ccc2c(c1)[C@H]1CCCN(C(=O)c3ccc4[nH]cnc4c3)[C@H]1C2 | – | – | human, plasma | 360 mg, day 15 | – | fasting insulin | 14.5 mU/L
O=C(O)[C@H](O)[C@@H](O)[C@H](O)[C@H](O)CO | – | binding, MIDAS equilibrium dialysis LC-MS | A2AR-BRIL thermostabilized | concentration not given | baseline: no-protein control | log2 fold change | -0.105
CCn1cc(-c2cc(Cn3ccoc3=N)cc3c2CCN([C@@H](C)c2cc(OC)ccn2)C3=O)c(C(F)(F)F)n1 | HCC78 | cell growth, inhibitor | – | 120 h | – | EC50 | 0.00461 µM
Cn1cc(-c2ccc(-c3cncc(Cl)c3N3CCC4(CCNC4=O)CC3)cc2)cn1 | COLO 205 | gene expression, microarray, refers to: OPTN mRNA | – | concentration not given, 2 h | baseline: untreated cells | log2 fold change | 4.15
CSc1cc(Oc2ccnc3[nH]c(=O)cnc23)ccc1NC(=O)Nc1cc(C(C)(C)C)nn1-c1ccccc1 | patient-derived cell line clone | RPPA, refers to: phospho ribosomal protein S6 | human | 1 µM, 4 h | baseline: DMSO | phospho ratio | 0.2
Nc1nc(=O)c2c([nH]1)NCC(CNc1ccc(C(=O)N[C@@H](CCC(=O)O)C(=O)O)cc1)N2C=O (mixture of isomers) | – | binding, MIDAS equilibrium dialysis LC-MS | A2AR-BRIL thermostabilized | concentration not given | baseline: no-protein control | log2 fold change | -0.191
CCn1cc(-c2cc(Cn3ccnc3)cc3c2CCN([C@H](c2cc(OC)ccn2)C2CC2)C3=O)c(C(F)(F)F)n1 | HEL 92.1.7 | cell growth | – | 120 h | – | EC50 | > 30 µM
CC[C@H](N)C(=O)O | – | binding, MIDAS equilibrium dialysis LC-MS | A2AR-BRIL thermostabilized | concentration not given | baseline: no-protein control | log2 fold change | -0.0684
COc1cnc2cccc(N3CCc4c(cc(Cn5ccnc5C)cc4-c4cn(C)nc4C(F)(F)F)C3=O)c2c1 | HCC78 | cell growth, inhibitor | – | 120 h | – | EC50 | > 30 µM

Excerpt of the above:
Structure (SMILES) | tested on | assay | system | setting | how to read | endpoint | value
COc1cnc2cccc(N3CCc4c(cc(Cn5ccnc5C)cc4-c4cn(C)nc4C(F)(F)F)C3=O)c2c1 | HCC78 | cell growth, inhibitor | – | 120 h | – | EC50 | > 30 µM
